# Results pooled from the literature.
# Lines come from different studies, so protocols differ.
# Cell line: CCRF-CEM
SMILES,test,setting,how to read,measurement,value
CCC(=C(c1ccc(Cl)cc1)c1ccc(OCCCN(C)C)cc1)c1ccc(OC)cc1,cell growth or viability,,,GI50,1.7 µM
CCOc1ccccc1-c1nnc2n1N=C(c1ccc(NCC(=O)O)cc1)CS2,"cell migration, Transwell migration",,,EC50,0.32 µM
COc1cc(CNC(=O)C[C@H](C)CCC=C(C)C)ccc1OCc1cn(-c2ccccc2F)nn1,SRB,"10 µM, 48 h",,growth,97.3%
CCOc1ccccc1-c1nnc2n1N=C(c1ccc(NC3CCC3)cc1)CS2,"cell migration, Transwell migration",,,EC50,0.2 µM
COc1cc(CNC(=O)C[C@H](C)CCC=C(C)C)ccc1OCc1cn(-c2ccccc2)nn1,SRB,"10 µM, 48 h",,growth,59.4%
CC(=O)OC[C@H]1O[C@@H](Sc2sc(C(=O)c3ccc(C)cc3)c(N)c2-c2nc3ccccc3s2)[C@H](OC(C)=O)[C@@H](OC(C)=O)[C@H]1OC(C)=O,SRB,"10 µM, 48 h",,growth,79.5%
COc1cc(CNC(=O)C[C@H](C)CCC=C(C)C)ccc1OCc1cn(-c2ccccc2[N+](=O)[O-])nn1,SRB,"10 µM, 48 h",,growth,36.5%
CC(Cc1ccc(Cl)cc1)=C(c1ccc(Cl)cc1)c1ccc(OCCN(C)C)cc1,cell growth or viability,,,GI50,4.17 µM
COc1cc(CNC(=O)C[C@H](C)CCC=C(C)C)ccc1OCc1cn(-c2ccc(Cl)c(Cl)c2)nn1,SRB,"10 µM, 48 h",,growth,84.5%
COc1ccc2c(c1)/C(=N\Nc1nnc3n1N=C(c1ccccc1)CS3)C(=O)N2,"cell growth or viability, SRB",10 µM,,inhibition,51%
COc1cc(CNC(=O)C[C@H](C)CCC=C(C)C)ccc1OCc1cn(-c2ccc(C#N)cc2)nn1,SRB,"10 µM, 48 h",,growth,58.4%
C(=C/c1ccccc1)/c1ccccc1,"apoptosis, flow cytometry, measured: caspase 3 activity",24 h,relative to: vehicle,lowest effective concentration,50 µM
O=C(Nc1ccn([C@@H]2O[C@H](CO)[C@@H](O)[C@H](F)[C@H]2O)c(=O)n1)c1ccccc1,cell growth or viability,,,IC50,> 200 µM
CC/C=C\C/C=C\C/C=C\C/C=C\C/C=C\C/C=C\CCC(=O)Nc1ccn(C2OC(CO)C(O)C2(F)F)c(=O)n1 (stereo not drawn),"cell growth or viability, SRB",,,GI50,0.0507 µM
CCOc1ccccc1-c1nnc2n1N=C(c1ccc(N3CCC3)cc1)CS2,"cell migration, Transwell migration",,,EC50,0.18 µM
CC(=O)OC[C@H]1O[C@@H](Sc2sc(C(=O)c3ccc(Br)cc3)c(N)c2-c2nc3ccccc3s2)[C@H](OC(C)=O)[C@@H](OC(C)=O)[C@H]1OC(C)=O,SRB,"10 µM, 48 h",,growth,85.5%
Cc1cn([C@@H]2O[C@H](CO)[C@@H](O)[C@H](F)[C@H]2O)c(=O)[nH]c1=O,cell growth or viability,,,IC50,> 200 µM
COc1cc(CNC(=O)C[C@H](C)CCC=C(C)C)ccc1O,SRB,"10 µM, 48 h",,growth,70.6%
